Results collected from several papers.
Protocols differ between the studies behind these lines. Values joined by “and” are separate records of one study, mostly repeats; a detail may differ. ± marks the error that the study gave.

Structure (SMILES)	tested on	assay	system	setting	quantity	value
CC(=O)NCCCC[C@@H]1NC(=O)[C@H](Cc2c[nH]c3c(C)cccc23)NC(=O)[C@H]([C@@H](C)O)NC(=O)[C@H](CC(N)=O)NC(=O)[C@@H](NC(C)=O)C(C)(C)SSC(C)(C)[C@@H](C(=O)N[C@@H](Cc2ccc(OCCN)cc2)C(=O)N[C@@H](Cc2ccc3ccccc3c2)C(=O)NC2(C(=O)N[C@@H](CCC(=O)O)C(=O)N[C@@H](CC(N)=O)C(=O)N[C@@H](Cc3cccnc3)C(=O)N(C)CC(N)=O)CCOCC2)NC1=O	Albumin (ALB, Homo sapiens, UniProt P02768)	equilibrium dialysis	purified human albumin	0.01 µM	unbound fraction	70.4 ± 4.1 % unbound
COc1ccc2c3c1O[C@H]1[C@@H](O)C=C[C@@]4(OC(C)=O)[C@@H](C2)N(C)CC[C@]314			octanol/buffer	1 h, pH 7.4	logD	0.63
Cc1nc2cccc(OCC(C)(C)C(=O)NC(C)C)c2c(N)c1C(=O)[O-].[Na+]	Escherichia coli	reverse mutation, preincubation	WP2 uvrA	0.80 mg/plate, with rat liver S9	revertant colonies	39 ± 8 colonies/plate
Cc1ccc(NC2(C)CN(C)C2)cc1C(=O)N[C@H](C)c1cc(-c2cnn(C)c2)nc2ccccc12	Vero E6			15.62 µM	viability	83.6% and 79.6% and 91.3%
O=C(O)c1cccc(CP(=O)(O)O)n1	HepG2	membrane integrity, CFDA-AM		24 h, without 10% FBS	EC50	> 250 mg/L
O=C1NC2(CC2)COc2ncc(F)cc2[C@H]2COCCN2c2ccn3ncc1c3n2	Salmonella typhimurium	Ames test	TA1535	5000 µg/plate, 48 h, added: without S9	revertant colonies	6 ± 1 revertants/plate
CCn1cc(-c2cc([C@@H](C)NC(=O)c3cc(OCCN(C)C)ccc3C)c3ccccc3n2)c(C(F)(F)F)n1	Vero E6			31.25 µM	viability	8.46% and 2.31%
CCCCCC1=C(NCC)C(=O)C(C/C=C(\C)CCC=C(C)C)=C(O)C1=O	human peripheral blood lymphocytes			10 µg/mL, 24 h, without S9	cytostasis	-9%
Cc1ccc(N(C)CCN2CCOCC2)cc1C(=O)N[C@H](C)c1cc(-c2cnn(C)c2)nc2ccccc12	Vero E6			7.812 µM	viability	91.9% and 90.4% and 92.5%
O=C(O)c1cn2c(c(O)c1=O)C(=O)N(Cc1ccc(F)cc1F)C[C@@H]2C(c1ccccc1)c1ccccc1			hamster cells		CC50	> 10 µM
Cc1ccc(N2C[C@@H]3C[C@H]2CN3C)cc1C(=O)N[C@H](C)c1cc(-c2cnn(C)c2)nc2ccccc12	African green monkey cells			125 µM	viability	1.63%
CC(C)[C@H](NC(=O)[C@@H](NC(=O)[C@H](CCCNC(=N)N)NC(=O)[C@H](CCCNC(=N)N)NC(=O)[C@H](CCCNC(=N)N)NC(=O)[C@H](CCC(N)=O)NC(=O)[C@H](CCCNC(=N)N)NC(=O)[C@H](CCCNC(=N)N)NC(=O)[C@H](CCCCN)NC(=O)[C@H](CCCCN)NC(=O)[C@H](CCCNC(=N)N)NC(=O)CN)[C@@H](C)O)C(=O)N[C@H](C(=O)N[C@@H](CO)C(=O)N1CCC[C@H]1C(=O)O)[C@@H](C)O			ICR mouse, male, right kidney	intranasal, 5 mg/kg daily, 4 weeks	kidney weight	0.33 ± 0.07 g

For quick reference, copied from above:
Structure (SMILES)	tested on	assay	system	setting	quantity	value
CC(C)[C@H](NC(=O)[C@@H](NC(=O)[C@H](CCCNC(=N)N)NC(=O)[C@H](CCCNC(=N)N)NC(=O)[C@H](CCCNC(=N)N)NC(=O)[C@H](CCC(N)=O)NC(=O)[C@H](CCCNC(=N)N)NC(=O)[C@H](CCCNC(=N)N)NC(=O)[C@H](CCCCN)NC(=O)[C@H](CCCCN)NC(=O)[C@H](CCCNC(=N)N)NC(=O)CN)[C@@H](C)O)C(=O)N[C@H](C(=O)N[C@@H](CO)C(=O)N1CCC[C@H]1C(=O)O)[C@@H](C)O			ICR mouse, male, right kidney	intranasal, 5 mg/kg daily, 4 weeks	kidney weight	0.33 ± 0.07 g
